# Measurements of several laboratories.
# Lines come from different studies, so protocols differ. “And” joins repeats or separate records; there may be more than shown. ± marks the error that the study gave.
# Organism: SARS-CoV-2
Structure (SMILES),assay,system,conditions,how to read,quantity,value
CCCCCCCCCCCCCCCCCCOP(=O)(O)Oc1c2c(c(OP(=O)(O)OCCCCCCCCCCCCCCCCCC)c3c1C1CC3c3cc4c(cc31)C1CC4c3ccccc31)C1CC2c2cc3c(cc21)C1CC3c2ccccc21,spike pseudoparticle entry,Caco-2,,,IC50,15.5 µM
C[C@@H]1O[C@@H](n2c3ccccc3c3c4c(c5c6ccccc6[nH]c5c32)CNC4=O)C[C@@H](N)[C@H]1O,"viral replication, refers to: dsRNA","Calu-3, Omicron BA.5",,,EC50,0.12 µM
Cc1oc2nc1C(=O)N[C@](C)(C(=O)NCCc1ccccc1)c1nc(c(C)o1)C(=O)N[C@](C)(C(=O)NCCc1ccccc1)c1nc(c(C)o1)C(=O)N[C@]2(C)C(=O)NCCc1ccccc1,virucidal activity,"Vero E6, NRC-03-nhCoV",2.5 µM,,inhibition,0%
CCCC/C=C/C(=O)N[C@@H](Cc1csc2ccccc12)C(=O)N[C@H]1COC(=O)[C@@H]2C[C@@H](C)CN2C(=O)[C@H](C)NC(=O)[C@@H]2CCCCN2C(=O)[C@@H]2CCCN2C1=O,,Huh-7 CLPP knock-out 1,"concentration not given, 6 h, unit not given",baseline: DMSO,RNA release,0.524 and 0.578 and 0.417
CC(C)(C)NC(=O)[C@@H](c1cccnc1)N(C(=O)c1ccco1)c1ccc(C(C)(C)C)cc1,,Vero C1008,10 µM,baseline: positive control,viral titre log reduction,0.266 log10
Cc1cc(C(=O)COn2nnc3ccc(S(C)(=O)=O)cc32)c(C)n1C,"viral replication, cell-based",,,,EC50,inactive
Oc1ccc(Br)cc1-c1nc2cc(C(F)(F)F)ccc2s1,,SB2,"concentration not given, 3 h, unit not given",baseline: DMSO,viral RNA level,0.0743 and 0.0876
CC(C)C(=O)OC[C@H]1O[C@@](C#N)(n2ccc(N)nc2=O)[C@H](O)[C@@H]1O,"viral replication, qRT-PCR of viral RNA","Caco-2, Washington",,,EC90,3.2 ± 1.3 µM
C=CCCOP(=O)(O)Oc1c2c(c(OP(=O)(O)OCCC=C)c3c1C1CC3c3cc4c(cc31)C1CC4c3ccccc31)C1CC2c2cc3c(cc21)C1CC3c2ccccc21,spike pseudoparticle entry,Caco-2,,,IC50,8.8 µM
Cc1ccc(N2CC(N3CCC(C)(O)CC3)C2)cc1C(=O)NC1(c2ccc3c4c(cccc24)CC3)CC1,viral replication,"Vero C1008, XBB.1",0.05144 µM,,inhibition,15%
O=P(O)(O)Oc1c2c(c(OP(=O)(O)O)c3c1C1CC3c3cc4c(cc31)C1CC4c3ccccc31)C1CC2c2cc3c(cc21)C1CC3c2ccccc21,spike pseudovirus entry,,,,time to maximum inhibition,5 h
Cc1oc2nc1C(=O)N[C@](C)(C(=O)O)c1nc(c(C)o1)C(=O)N[C@](C)(C(=O)O)c1nc(c(C)o1)C(=O)N[C@]2(C)C(=O)O,viral adsorption,"Vero E6, NRC-03-nhCoV",20 µM,,inhibition,65%
CC[C@](COC(=O)c1cc(OC)c(OC)c(OC)c1)(c1ccccc1)N(C)C,,Vero,83 µM,,plaque reduction,77.3%
COC(=O)CC[C@@H](C)C1CCC2C3C(CC[C@@]21C)[C@@]1(C)CC[C@@H](n2cc(CO[C@H]4O[C@@H]5O[C@@]6(C)CCC7[C@H](C)CC[C@@H]([C@H]4C)[C@]75OO6)nn2)CC1C[C@@H]3O (stereo partly drawn),,Calu-3,"20 µM, post-infection treatment",baseline: untreated,viral load reduction,4.04 log10
Cc1ccc(N2CC(N3CCC(C)(O)CC3)C2)cc1C(=O)NC1(c2ccc3c4c(cccc24)C(=O)N3C)CC1,viral replication,"Vero C1008, Omicron BA.5",0.05144 µM,,inhibition,5%
CC[C@H](C)[C@H](NC(=O)CNC(=O)[C@H](CO)NC(=O)CNC(=O)[C@H](CSSC[C@H](NC(C)=O)C(=O)NCC(=O)N[C@@H](CO)C(=O)NCC(=O)N[C@H](C(=O)N[C@@H](CO)C(=O)NCC(=O)N[C@H](C(=O)N[C@@H](CC(N)=O)C(=O)N[C@@H](C)C(=O)N[C@@H](CO)C(=O)N[C@H](C(=O)N[C@H](C(=O)N[C@@H](CC(N)=O)C(=O)N[C@H](C(=O)N[C@@H](CCC(N)=O)C(=O)N[C@@H](CCCCN)C(=O)N[C@@H](CCC(=O)O)C(=O)N[C@H](C(=O)N[C@@H](CCC(=O)O)C(=O)N[C@@H](CCCNC(=N)N)C(=O)N[C@@H](CC(C)C)C(=O)N[C@@H](CC(N)=O)C(=O)N[C@@H](CCCCN)C(=O)N[C@H](C(=O)N[C@@H](C)C(=O)N[C@@H](CCCCN)C(=O)N[C@@H](CCC(=O)O)C(=O)N[C@@H](CC(C)C)C(=O)N[C@@H](CC(N)=O)C(=O)N[C@@H](CCCCN)C(=O)N[C@@H](CO)C(=O)N[C@@H](CC(C)C)C(=O)N[C@H](C(=O)N[C@@H](CC(=O)O)C(=O)N[C@@H](CC(C)C)C(=O)N[C@@H](CCC(N)=O)C(=O)N[C@@H](CCC(=O)O)C(N)=O)[C@@H](C)CC)C(C)C)[C@@H](C)CC)[C@@H](C)CC)C(C)C)C(C)C)[C@@H](C)CC)[C@@H](C)CC)NC(C)=O)C(=O)N[C@@H](CO)C(=O)NCC(=O)N[C@H](C(=O)N[C@@H](CC(N)=O)C(=O)N[C@@H](C)C(=O)N[C@@H](CO)C(=O)N[C@H](C(=O)N[C@H](C(=O)N[C@@H](CC(N)=O)C(=O)N[C@H](C(=O)N[C@@H](CCC(N)=O)C(=O)N[C@@H](CCCCN)C(=O)N[C@@H](CCC(=O)O)C(=O)N[C@H](C(=O)N[C@@H](CCC(=O)O)C(=O)N[C@@H](CCCNC(=N)N)C(=O)N[C@@H](CC(C)C)C(=O)N[C@@H](CC(N)=O)C(=O)N[C@@H](CCCCN)C(=O)N[C@H](C(=O)N[C@@H](C)C(=O)N[C@@H](CCCCN)C(=O)N[C@@H](CCC(=O)O)C(=O)N[C@@H](CC(C)C)C(=O)N[C@@H](CC(N)=O)C(=O)N[C@@H](CCCCN)C(=O)N[C@@H](CO)C(=O)N[C@@H](CC(C)C)C(=O)N[C@H](C(=O)N[C@@H](CC(=O)O)C(=O)N[C@@H](CC(C)C)C(=O)N[C@@H](CCC(N)=O)C(=O)N[C@@H](CCC(=O)O)C(N)=O)[C@@H](C)CC)C(C)C)[C@@H](C)CC)[C@@H](C)CC)C(C)C)C(C)C)[C@@H](C)CC,viral replication,"VeroE6/TMPRSS2, ancestral Wuhan",,baseline: compound over corresponding monomer,IC50 ratio,2.52
O=C1C(O)=C(Nc2ccc(F)cc2)C(=O)c2ccccc21,,Calu-3 and HepG2,,baseline: HepG2 CC50 over antiviral EC50,selectivity index,110 ± 30
Cc1ccc(N2CCN(C)CC2)cc1C(=O)NC1(c2cc(-c3cnn(C)c3)nc3ccccc23)CC1,viral replication,recombinant Y268H mutant,,baseline: wild type,EC50 fold change,6 to 13 fold
O=C(CCCCCCc1ccc(O)c(O)c1)c1c(O)cccc1O,,"Vero E6/TMPRSS2, WK-521 ancestral",,baseline: CC50 over EC50,selectivity index,14.2
CC(C)CC(C(=O)N1CC2(CC1C#N)C(=O)Nc1ccccc12)N(C)C(=O)c1cc2c(F)cc(F)c(F)c2[nH]1 (stereo not drawn),"viral replication, infectious virus",Vero E6,1 µM,,inhibition,97%
Cc1c(C(=O)N2c3ccccc3NC(=O)C2CC(=O)Nc2ccc(Cl)c(Cl)c2)oc2ccccc12 (stereo not drawn),,A549-ACE2,,baseline: CC50 over EC50,selectivity index,> 10
Cc1oc2nc1C(=O)N[C@](C)(C(=O)OC(C)C)c1nc(c(C)o1)C(=O)N[C@](C)(C(=O)OC(C)C)c1nc(c(C)o1)C(=O)N[C@]2(C)C(=O)OC(C)C,viral replication,"Vero E6, NRC-03-nhCoV",20 µM,,inhibition,53%
Clc1ccc(CN2CCCC3=CC4CC(CN5CCCCC45)C32)c(Cl)c1 (stereo not drawn),viral replication,,concentration not given,,antiviral activity,inactive
Cc1ccc(N2CC3CC(C2)N3)cc1C(=O)NC1(c2ccc3c4c(cccc24)C(=O)N3C)CC1,viral replication,"Vero C1008, wild type",0.005716 µM,,inhibition,10%
CCC1OC(C2(C)CC(C)C(O)(C3(C)CCC(C(O)C4(O)OC(CC5(O)OC(C(C)C(O)CC6CCC(C)C(C(C)C(=O)O)O6)CCC5C)C(C)CC4C)O3)O2)CCC1(C)O (stereo not drawn),,Vero E6-hTMPRSS2,,baseline: CC50 over EC50,selectivity index,> 500 fold and 586 fold
Brc1c(Br)c(Br)c2[nH]nnc2c1Br,,Huh-7,,baseline: CC50 over EC50,selectivity index,inactive
Cc1ccc(N2CCN(C)CC2)cc1C(=O)NC1(c2ccc3c4c(cccc24)CC3)CC1,viral replication,"Vero C1008, XBB.1",0.05144 µM,,inhibition,0%

# A few entries again:
Structure (SMILES),assay,system,conditions,how to read,quantity,value
Cc1ccc(N2CC(N3CCC(C)(O)CC3)C2)cc1C(=O)NC1(c2ccc3c4c(cccc24)CC3)CC1,viral replication,"Vero C1008, XBB.1",0.05144 µM,,inhibition,15%
Cc1ccc(N2CCN(C)CC2)cc1C(=O)NC1(c2ccc3c4c(cccc24)CC3)CC1,viral replication,"Vero C1008, XBB.1",0.05144 µM,,inhibition,0%
CC(C)(C)NC(=O)[C@@H](c1cccnc1)N(C(=O)c1ccco1)c1ccc(C(C)(C)C)cc1,,Vero C1008,10 µM,baseline: positive control,viral titre log reduction,0.266 log10
